Experimental data pooled from the literature.
Compare with care: the assays were run in different laboratories. Several values in a cell are separate wells, animals, samples, runs or records. ± marks the error that the study gave.

Cn1c(-c2ccc(C(N)=O)cc2F)nnc1C(C)(C)Oc1c(F)cc(Cl)cc1F
musculoskeletal disorder TEAE (human; oral, 30 mg, single ascending dose): 16.7%

CN1CCN(S(=O)(=O)c2cc([N+](=O)[O-])ccc2N(CCOS(C)(=O)=O)CCOS(C)(=O)=O)CC1
hemoglobin (NOD/SCID mouse, naive, blood; intraperitoneal, 18.8 mg/kg, week 2): 150 g/L and 160 g/L and 144 g/L and 156 g/L

O=S(=O)(Nc1ccccc1)c1ccc(NC(=S)Nc2ccccc2)cc1
blood cell fraction (refers to: EO%; male mouse, blood; oral, 20 mg/kg daily, 14 days): 0.67%

COc1ccc2nc3cc(Cl)ccc3c(Nc3cc(CN4CCCC4)c(O)c(CN4CCCC4)c3)c2n1
basophil count (mouse, blood; intraperitoneal, 57 mg/kg): 0.09 10⁹/L

CC(C)C[C@H](NC(=O)[C@H](CCCCN)NC(=O)OCC1c2ccccc2-c2ccccc21)C(=O)N[C@H](C(=O)N[C@@H](Cc1ccccc1)C(=O)N[C@@H](Cc1ccccc1)C(=O)N[C@@H](CCCCN)C(=O)NCC(=O)N[C@@H](Cc1ccccc1)C(=O)N[C@@H](C)C(=O)N[C@@H](Cc1c[nH]c2ccccc12)C(=O)N[C@@H](CC(N)=O)C(=O)N[C@H](C(=O)N[C@H]1CSSC[C@@H](C(=O)N[C@@H](Cc2c[nH]cn2)C(=O)N[C@@H](CCCNC(=N)N)C(=O)N[C@@H](CCCNC(=N)N)C(=O)N[C@@H](C)C(=O)N[C@@H](CC(N)=O)C(N)=O)NC(=O)[C@H](C(C)C)NC(=O)[C@H](CCCNC(=N)N)NC(=O)[C@H](C(C)C)NC(=O)CNC(=O)[C@H](CC(N)=O)NC(=O)[C@H](CCCNC(=N)N)NC(=O)[C@H](Cc2ccc(O)cc2)NC(=O)[C@H](C(C)C)NC1=O)C(C)C)C(C)C
creatinine (ICR mouse, blood; intramammary, 5 mg/kg, day 5, 3 d dosing): 85.5 ± 3.38 µmol/L

Clc1ccc(Cl)c(-c2cc(Cl)ccc2Cl)c1
organ weight (Sprague Dawley rat, thymus; intraperitoneal, 100 mg/kg): 0.45 g

CO[C@H]1C[C@@H]2CC[C@@H](C)[C@@](O)(O2)C(=O)C(=O)N2CCCC[C@H]2C(=O)O[C@H]([C@H](C)C[C@@H]2CC[C@@H](OC(=O)NCCOCCOCCOCCOCCOCCOCCOCCOCCC(=O)N3CCc4cc(Cn5nc(-c6ccc7oc(N)nc7c6)c6c(N)ncnc65)ccc4C3)[C@H](OC)C2)C[C@@H](O)[C@H](C)/C=C(\C)[C@@H](O)[C@@H](OC)C(=O)[C@H](C)C[C@H](C)/C=C/C=C/C=C/1C
TRAE incidence (phase 1 dose escalation, refers to: fatigue; advanced solid tumour patients; intravenous, 8 mg weekly, any grade): 43.8%

C[C@@H](NC(=O)N1C(=O)[C@H](Cc2ccnc(N)c2)[C@H]1C(=O)O)C1CCCCC1
incidence of administration site extravasation (healthy adult Chinese volunteers; continuous intravenous infusion, 1.0 mg/kg/h, 5-day infusion, CTCAE 5.0 grading): 0%

COc1ncccc1-c1cnn2ccc(N3CCN(C(=O)OC(C)C)CC3)nc12
drug concentration (mouse nerve ligation model, plasma; oral, 3 mg/kg, 120 min after last dose, repeat dosing day 2): 2000 nM

CCCC[C@@H]1NC(=O)[C@H](Cc2ccc(O)cc2)NC(=O)[C@@H]2CCCN2C(=O)[C@H](CC(=O)O)NC(=O)[C@H](C)NC(=O)[C@H](Cc2ccccc2)NC(=O)[C@@H]2CSCCC(=O)N3CN(CN(C3)C(=O)CCSC[C@@H](C(N)=O)NC1=O)C(=O)CCSCCC(=O)N[C@@H](CC(C)(C)C)C(=O)N1CCC[C@H]1C(=O)N[C@@H](CCC(=O)O)C(=O)N[C@H](CCCCNC(=O)CCc1cn(CCOCCOCCOCCN(CCOCCOCCOCCC(=O)N[C@H]3CSCCC(=O)N4CN5CN(C4)C(=O)CCSC[C@H](NC(=O)[C@@H](CC(=O)O)NC(=O)[C@H](Cc4cccc6ccccc46)NC(=O)[C@@H]4CCCN4C3=O)C(=O)N[C@@H](CCSC)C(=O)N[C@@H](CCCCNC(=N)N)C(=O)N[C@@H](CC(=O)O)C(=O)N[C@@H](Cc3c[nH]c4ccccc34)C(=O)N[C@@H](CO)C(=O)N[C@@H]([C@@H](C)O)C(=O)N3CCC[C@H]3C(=O)N3C[C@H](O)C[C@H]3C(=O)N[C@@H](Cc3c[nH]c4ccccc34)C(=O)N[C@H](C(N)=O)CSCCC5=O)CCOCCOCCOCCn3cc(CCC(=O)NCCCC[C@H]4NC(=O)[C@H](CCC(=O)O)NC(=O)[C@@H]5CCCN5C(=O)[C@H](CC(C)(C)C)NC(=O)CCSCCC(=O)N5CN6CN(C5)C(=O)CCSC[C@H](NC(=O)[C@H](Cc5ccc(O)cc5)NC(=O)[C@@H]5CCCN5C4=O)C(=O)N[C@@H](Cc4ccccc4)C(=O)N[C@@H](C)C(=O)N[C@@H](CC(=O)O)C(=O)N4CCC[C@H]4C(=O)N[C@@H](Cc4ccc(O)cc4)C(=O)N[C@@H](CCCC)C(=O)N[C@H](C(N)=O)CSCCC6=O)nn3)nn1)C(=O)N1CCC[C@H]1C(=O)N[C@@H](Cc1ccc(O)cc1)C(=O)N2
unbound clearance (Sprague-Dawley rat): 51 mL/min/kg

C[C@H]1CN(C(=O)CC#N)[C@]12CCN(c1ncnc3[nH]ccc13)C2
AUC at NOAEL (dog, female; oral, 3 mg/kg repeated, 3 months): 11500 ng·h/mL

C=CCNc1c(O)cc2c(O)c1C[C@@H](C)C[C@H](OC)[C@H](O)[C@@H](C)/C=C(\C)[C@H](OC(N)=O)[C@@H](OC)/C=C\C=C(/C)C(=O)N2
patients with vomiting TEAE (unresectable or metastatic STS, GIST, other; intravenous, 500 mg/m^2): 43%

O=C(Nc1ccccc1)C1CCN(C(=O)Oc2cccnc2)CC1
adverse event Fatigue (healthy women; oral, 60 mg, 7 days): 21.4%

CCNCCCNC/C=C\CNCCCNCC
serious TEAE, disease progression (human, advanced solid tumours; intravenous, dose not given; reference: patients): 6.5%

O=C1Nc2cc3[nH]nc(-c4ccncc4)c3cc2CN1Cc1ccccc1
patients with acneiform dermatitis (CTCAE v4.03; advanced solid tumour patients; intravenous, 3.6 mg/kg, schedules 1/2): 0%

C=C(CN(C(=O)c1c(C(F)F)nn(C)c1F)C1CC1)c1ccc(Cl)cc1Cl
mortality (static acute toxicity test; zebrafish (Brachydanio rerio); 0.694 mg a.i./L, 48 h): 0%

CCc1ccc(CC/C=C/c2ccc3c(c2)C(=O)CC3)cc1
total protein (Sprague-Dawley rat, male, serum; oral, 450 mg/kg/day, 14 days): 51.5 g/L

Clc1ccc(-c2ccccc2)cc1
alanine aminotransferase (Sprague-Dawley rats, female, serum; inhalation, 23 µg/rat, 2 h after exposure): 95 ± 65 U/L

Cn1cc(-c2nc(N[C@@H]3CCCC[C@@H]3N)c(F)c3c2C(=O)NC3)cn1
hemorrhagic adverse events (refers to: Melaena; patients with relapsed or refractory AML; oral, 80 mg twice daily): 17%

CCN1[C@@H](C(=O)NC23CCC(C(=O)O)(CC2)CC3)[C@H](c2cccc(Cl)c2F)[C@]2(C(=O)Nc3cc(Cl)ccc32)C12CCCCC2
Lymphocytopenia incidence (patients with advanced solid tumours; oral, 200 mg): 50%

CCCCCOc1ccc(-c2ccc(-c3ccc(C(=O)N[C@H]4C[C@@H](O)[C@@H](OCC[N+](C)(C)C)NC(=O)[C@@H]5[C@@H](O)[C@@H](C)CN5C(=O)[C@H]([C@@H](C)O)NC(=O)[C@H]([C@H](O)[C@@H](O)c5ccc(O)cc5)NC(=O)[C@@H]5C[C@@H](O)CN5C(=O)[C@H]([C@@H](C)O)NC4=O)cc3)cc2)cc1
alkaline phosphatase (adult ICU patients, mITT, serum; dose not given, Follow-up): 154 U/L

NC(=O)[C@H]1CCN(c2ncnc(N)c2F)C[C@@H]1N1CCC[C@@H](Nc2cc(Cl)cc(C(F)(F)F)c2)C1=O
grade ≥3 leukocytosis (B-cell malignancy patients; oral, 410 mg twice daily, dose): 0%

[O-][S+]1CCc2nc(N3CCC(c4ncc(Cl)cn4)CC3)nc(NC3(CO)CCC3)c21 (stereo not shown)
subjects with adverse event (refers to: abdominal distension; healthy male subjects; dose not given, single rising dose, total): 8.3%

CC[C@H](C)[C@H](NC(=O)[C@H](Cc1ccccc1)NC(=O)[C@H](CCC(=O)O)NC(=O)[C@H](CCCNC(=N)N)NC(=O)[C@H](C)NC(=O)[C@H](C)NC(=O)[C@H](CCC(N)=O)NC(=O)[C@H](CCC(=O)O)NC(=O)[C@H](CCC(=O)O)NC(=O)[C@H](CC(C)C)NC(=O)[C@H](Cc1ccc(O)cc1)NC(=O)[C@H](CO)NC(=O)[C@H](CO)NC(=O)[C@@H](NC(=O)[C@H](CC(=O)O)NC(=O)[C@H](CO)NC(=O)[C@@H](NC(=O)[C@H](Cc1ccccc1)NC(=O)[C@@H](NC(=O)CNC(=O)[C@H](CCC(=O)O)NC(=O)[C@H](C)NC(=O)CCc1cnc[nH]1)[C@@H](C)O)[C@@H](C)O)C(C)C)C(=O)N[C@@H](C)C(=O)N[C@@H](Cc1c[nH]c2ccccc12)C(=O)N[C@@H](CC(C)C)C(=O)N[C@H](C(=O)N[C@@H](CCCNC(=N)N)C(=O)NCC(=O)N[C@@H](CCCNC(=N)N)C(=O)N[C@@H](CCCCNC(=O)COCCOCCNC(=O)COCCOCCNC(=O)CC[C@H](NC(=O)CCCCCCCCCCCCCCCCC(=O)O)C(=O)O)C(=O)NCC(=O)NCC(=O)N[C@@H](CO)C(=O)N[C@@H](CCCCNC(=O)[C@H](CCCCNC(=O)[C@H](CCCCNc1c(NCCCCCN(O)C(=O)CCC(=O)NCCCCCN(O)C(=O)CCC(=O)NCCCCCN(O)C(C)=O)c(=O)c1=O)Nc1c(NCCCCCN(O)C(=O)CCC(=O)NCCCCCN(O)C(=O)CCC(=O)NCCCCCN(O)C(C)=O)c(=O)c1=O)NC(=O)[C@H](CCCCNc1c(NCCCCCN(O)C(=O)CCC(=O)NCCCCCN(O)C(=O)CCC(=O)NCCCCCN(O)C(C)=O)c(=O)c1=O)Nc1c(NCCCCCN(O)C(=O)CCC(=O)NCCCCCN(O)C(=O)CCC(=O)NCCCCCN(O)C(C)=O)c(=O)c1=O)C(=O)O)C(C)C [zirconium-89 labelled]
tissue uptake (ex vivo gamma counting; male Sprague-Dawley rats, bone marrow; intravenous, 1 nmol, 24 h): 1.77 %ID/g

O=C(O)CCCOc1ccc(F)cc1-c1cc(-c2ccccc2C(F)(F)F)n(-c2ccccc2)n1
total protein (Crl:CD(SD) rat, female, serum; intravenous, 25 µg/kg, 1 days post-dose): 58.8 ± 2.9 g/L

O=C(Nc1cccnn1)N1CCC(=Cc2cccc(Oc3ccc(C(F)(F)F)cn3)c2)CC1
concentration (culture medium without cells; 100 nM, 3 h): 31.2 ± 2.4 nM

CC[C@H](C)[C@H](N)C(=O)N[C@@H](CCCNC(=N)N)C(=O)N[C@H](C(=O)N[C@@H](Cc1c[nH]c2ccccc12)C(=O)N[C@@H](Cc1ccccc1)C(=O)N[C@H](C(=O)N[C@@H](CCCCN)C(=O)N[C@H](C(=O)N[C@@H](CCCNC(=N)N)C(=O)N[C@@H](CCCCN)C(=O)N[C@@H](Cc1c[nH]c2ccccc12)C(=O)N[C@@H](CCCCN)C(=O)N[C@@H](C)C(=O)N[C@H](C(=O)N[C@@H](Cc1ccc(O)cc1)C(=O)N[C@@H](Cc1c[nH]cn1)C(=O)N[C@H](C(N)=O)[C@@H](C)O)[C@@H](C)CC)C(C)C)[C@@H](C)CC)C(C)C
elution acetonitrile content (reversed-phase UPLC; C18 column, TFA): 43.1%

CC(=O)c1c(C)c2cnc(Nc3ccc(C4CCN(CCS(C)(=O)=O)CC4)cn3)nc2n(C2CCCC2)c1=O
Vd (human, plasma; oral, 75 mg twice daily, day 1, single dose, with: fulvestrant): 816 L

[Cl][212Pb][Cl]
tissue uptake (athymic mice, C4-2 xenograft, large intestine; intravenous, 2 h, 212Pb-labelled): 2.05 ± 0.3 %ID/g

O=C(O)CNCP(=O)(O)O
milk fat partition ratio (cow whole milk; 2000 nM; reference: milk fat over skim milk): 0.21

COc1ccc(-c2c(-c3ccc(C#N)c(F)c3)nc(N3CCC(N)CC3)n(C)c2=O)cc1F
treatment-related adverse event incidence (refers to: Nausea; human patients; oral, dose not given, grade 3 to 4, dose escalation, NG): 0%

COc1cc2c(Oc3ccc4[nH]c(C)cc4c3F)ccnc2cc1OCC1(N)CC1
grade 3 sinus arrhythmia (paediatric recurrent refractory sarcoma; 8 mg/kg): 0%

C[C@]1(CO)Cc2ncn(-c3ccc(C#N)c(Cl)c3)c2C(=O)O1
drug-related Headache incidence (Chinese subjects; dose not given, all doses total): 8.3%

O=C(/C=C/c1ccc(O)c(O)c1)O[C@@H]1C[C@](O)(C(=O)O)C[C@@H](O)[C@H]1O
Tmax (Sprague Dawley rat, plasma; oral, 10 g lyophilized powder/kg, high dose): 7.8 ± 3 min

Oc1ccc(CCc2cc(O)cc(O)c2)cc1
plasma concentration (human, both sexes, plasma; mean): 1190 nM

C=CC(=O)N1CC[C@H](n2nc(C#Cc3cc(OC)cc(OC)c3)c3c(N)ncnc32)C1
decreased appetite, any grade (human patients; oral, dose not given, QD regimen, adverse drug reaction, with: sevelamer hydrochloride): 45.5%

COc1ccc(F)cc1C(=O)NCc1ccc(-c2nn([C@@H](C)C(F)(F)F)c(N)c2C(N)=O)cc1
AUCtau (human, plasma; oral, 200 mg once daily, with: oral midazolam): 118000 ng·h/mL
